Published values gathered from unrelated publications.
Lines come from different studies, so protocols differ. Numbers after ± are the reported error.
Target: Tyrosine-protein kinase TXK (TXK, Homo sapiens, UniProt P42681)
Sequence (P42681 1-527, as in one of the studies): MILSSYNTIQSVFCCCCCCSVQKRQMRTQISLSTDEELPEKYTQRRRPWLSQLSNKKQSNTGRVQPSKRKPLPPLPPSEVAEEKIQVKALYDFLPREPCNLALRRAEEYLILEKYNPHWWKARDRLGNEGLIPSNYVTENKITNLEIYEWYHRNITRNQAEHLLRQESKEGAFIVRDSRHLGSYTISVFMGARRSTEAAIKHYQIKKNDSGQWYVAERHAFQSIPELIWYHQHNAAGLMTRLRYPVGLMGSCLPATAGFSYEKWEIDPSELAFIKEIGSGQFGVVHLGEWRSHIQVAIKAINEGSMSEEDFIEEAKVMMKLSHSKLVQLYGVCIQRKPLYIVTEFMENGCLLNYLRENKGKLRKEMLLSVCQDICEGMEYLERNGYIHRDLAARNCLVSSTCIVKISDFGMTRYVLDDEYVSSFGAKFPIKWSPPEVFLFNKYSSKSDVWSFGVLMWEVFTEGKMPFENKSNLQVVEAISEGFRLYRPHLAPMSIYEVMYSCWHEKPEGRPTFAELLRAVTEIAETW

| Structure (SMILES) | assay | conditions | scale | endpoint | value |
| --- | --- | --- | --- | --- | --- |
| C=CC(=O)N1CCC[C@@H](n2nc(-c3ccc(Oc4ccccc4)cc3)c3c(N)ncnc32)C1 |  | 1 µM |  | remaining activity | 105% |
| C=CC(=O)N1CCC[C@@H](n2nc(-c3ccc(Oc4ccccc4)cc3)c3c(N)ncnc32)C1 | kinase activity, inhibitor, HotSpot radiometric | 100 nM, added: ATP 10 µM |  | remaining activity | -0.1 ± 0.1% |
| C#Cc1cc(-c2cc(Nc3nc(N[C@@H](C)c4ccc(F)cn4)ncc3Cl)n[nH]2)ccc1C=O | enzyme activity, inhibitor | 0.2 µM |  | inhibition | 10.5% |
| COc1ccc(F)cc1C(=O)NCc1ccc(-c2nn([C@@H](C)C(F)(F)F)c(N)c2C(N)=O)cc1 | kinase activity, inhibitor, HotSpot radiometric | 1000 nM, added: ATP at Km |  | remaining activity | 19.6 ± 0.6% |
| CNc1ncc2c(/C=C/C(=O)N3CCC(OC)CC3)nn(Cc3cccc(C(F)(F)F)c3)c2n1 | kinase activity, inhibitor | 1 µM | baseline: untreated control | remaining activity | 109% |
| O=C(NC1CCC1)c1ccc2nc(-c3cccc(NS(=O)(=O)NCCN4CCCCC4)c3)cn2c1 | enzyme activity | 10 µM |  | remaining activity | 78% |
| C=CC(=O)N1CCCN(C(=O)c2cc(Sc3cnc(NC(=O)C4CC4)s3)c(C)cc2OC)C[C@H]1C | kinase activity, inhibitor | concentration not given | baseline: control | remaining activity | 70% |
| COc1cc(F)ccc1-c1ncnc(Nc2cccc(C[S@](C)(=N)=O)c2)n1 | kinase activity | 10 µM, added: 10 µM ATP |  | remaining activity | 67% |
| Cc1cc(Nc2cc(N3CCN(C)CC3)nc(Sc3ccc(NC(=O)C4CC4)cc3)n2)[nH]n1 | kinase activity, KinaseProfiler | 0.03 µM, species human | baseline: control | remaining activity | 89% |

Some of these lines once more:
| Structure (SMILES) | assay | conditions | scale | endpoint | value |
| --- | --- | --- | --- | --- | --- |
| C#Cc1cc(-c2cc(Nc3nc(N[C@@H](C)c4ccc(F)cn4)ncc3Cl)n[nH]2)ccc1C=O | enzyme activity, inhibitor | 0.2 µM |  | inhibition | 10.5% |
